Published values gathered from unrelated publications.
Values joined by “and” are separate records of one study, mostly repeats; a detail may differ. ± marks the error that the study gave.

SMILES	tested on	assay	system	conditions	how to read	measurement	value
CNCc1ccc(-c2[nH]c3cc(F)cc4c3c2CCNC4=O)cc1			human patients	oral, 600 mg twice daily, grade 4		neutropenia incidence	0%
Cl.[2H]C([2H])([2H])CC(=O)c1cnc(NC(=O)C2CC2)cc1Nc1cccc(-c2ncn(C([2H])([2H])[2H])n2)c1OC		geometric mean	human	oral, 10 mg once daily, day 7, fasted, liquid, multiple dose		Cmax	117 ng/mL
Cn1cc(Nc2nccc(-c3ccc4c(c3)CN(C3COC3)CC[C@H]4NC(=O)c3cn(C(C)(C)C)nn3)n2)cn1		refers to: NKT cell count	human, clinical trial, whole blood	150 mg twice daily, follow-up		percent change from baseline	-15.9%
O=C(Nc1nc2cccc(-c3ccc(CN4CCS(=O)(=O)CC4)cc3)n2n1)C1CC1			rheumatoid arthritis patients	oral, 100 mg twice daily, 4 weeks, regardless of relatedness		patients with lipase increased	8.3%
Cc1cc2sc(N)nc2c2cccnc12			female BALB/c mice, plasma	i.p., 30 mg/kg		Tlag	0 h
CC(=O)N[C@@H](CC(N)=O)C(=O)N[C@@H](CCCNC(=N)N)C(=O)N[C@@H](CC(C)C)C(=O)N[C@H]1CSSC[C@@H](C(=O)N[C@H](C(N)=O)[C@@H](C)O)NC(=O)[C@H](CCCNC(=N)N)NC(=O)[C@H](Cc2c[nH]cn2)NC(=O)[C@H](Cc2cccc3ccccc23)NC(=O)CNC(=O)[C@H](Cc2c[nH]c3ccccc23)NC(=O)[C@H](CC(=O)O)NC(=O)[C@H](CCC(N)=O)NC(=O)[C@H](Cc2cccc3ccccc23)NC(=O)[C@H](C(C)C)NC1=O		isocratic RP-HPLC, C18	32% acetonitrile, phosphate pH 7.4, 1% TFA	25 °C		retention factor	7.299 ± 0.005
O=C(O)CCC(=O)O.[2H]C([2H])([2H])Oc1cc(C)c2[nH]ccc2c1CN1CC[C@@H](C2CC2)C[C@H]1c1ccc(C(=O)O)cc1		multiple ascending dose	healthy Chinese subjects	125 mg twice daily		subjects with elevated cholesterol TEAE	0%
O=C(N[C@H](Cc1c[nH]c2ccccc12)C(=O)Nc1ccncc1)c1ccc(N2CCN(c3ccc(F)c(F)c3)CC2)cc1F			Swiss Webster mouse, female, brain	oral, 50 mg/kg, 8 h, 20% HPβCD vehicle		concentration	20 nM
Cn1cc2cc1C(=O)NC[C@H](N)CC(=O)Nc1cc(n(C)c1)C(=O)Nc1cc(n(C)c1)C(=O)Nc1cc(n(C)c1)C(=O)Nc1cc(n(C)c1)C(=O)NC[C@H](N)CC(=O)Nc1cn(C)c(n1)C(=O)Nc1cn(C)c(n1)C(=O)Nc1cc(n(C)c1)C(=O)N2		dynamic light scattering	0.1% DMSO in PBS	25 °C		critical aggregation concentration	4 µM
C=CCN1CC(=O)N2[C@@H](Cc3ccc(O)cc3F)C(=O)N(Cc3cccc(N4CC(N5CCN(CC)CC5)C4)n3)C[C@@H]2N1C(=O)NCc1ccccc1		refers to: decreased appetite	human advanced solid tumours	concentration not given, expansion any grade		treatment-related adverse events	10.5%
COc1c(N2C[C@@H]3CCCN[C@@H]3C2)c(F)cc2c(=O)c(C(=O)O)cn(C3CC3)c12			healthy volunteers	oral, 400 mg single dose, day 5, 0.00 h		QTcI change from baseline	-5.9 ms
CNC(=O)c1ccc(-c2cnc3ncc(Cc4ccc5ncccc5c4)n3n2)cc1F		refers to: Headache, all grades	gastric cancer patients	oral, 600 mg twice daily, expansion cohort, any causality		patients with adverse event	11%
COc1cccc(OC)c1-c1cc(C(=O)NC2(C(=O)O)C3CC4CC(C3)CC2C4)nn1-c1ccc(C(=O)N(C)CCCN(C)CCCN(C)C(=O)CN2CCN(CC(=O)[O-])CCN(CC(=O)[O-])CCN(CC(=O)[O-])CC2)cc1C(C)C.[177Lu+3] (stereo not shown)			mouse, HT-29 xenograft	72 h post injection, biodistribution	relative to: tumour over kidney uptake	tumour-to-kidney ratio	25.5
O=C(O)CSc1nnc(Br)n1-c1ccc(C2CC2)c2ccccc12			KM mouse, chronic hyperuricaemia model	dose not given, day 15		body weight	28.6 g and 34 g and 28.8 g and 32.8 g and 36.8 g and 33.6 g
CCCCCCCCCCCCCC(=O)[O-].C[N+](C)(C)CCO		fluorescence probe	water	37 °C		critical aggregation concentration	13750 ± 70 µM
COc1ccc2c(=O)n(C)c(-c3ccccc3)nc2c1			male Sprague-Dawley rat, stomach	oral, 30 mg/kg, 4 h		tissue concentration	124 ng/g
N#CC(Cc1ccc(O)cc1)c1ccc(O)cc1 (stereo not shown)			female Long-Evans rats, serum	subcutaneous, 5.2 µmol/kg		dose-normalised Cmax	0.1 µM per µmol/kg
CCc1nc(C(N)=O)c(Nc2ccc(N3CCC(N4CCN(C)CC4)CC3)c(OC)c2)nc1NC1CCOCC1			Japanese patients, plasma	oral, 300 mg, cycle 0 day -2, single dose, mean		AUC(0-24)	5370 ng·h/mL
N[C@@H]1c2ccccc2OC12CCN(c1cnc3c(N4CCCc5ncccc54)n[nH]c3n1)CC2			patients advanced solid tumours, plasma	oral, 150 mg once daily, cycle 1 day 15		effective half-life	105 h
COc1cc2c3c(n(CCCN4CCOCC4)c(=O)c2cc1OC)-c1cc2c(cc1C3=O)OCO2			beagle dog, female, plasma	intravenous infusion, 646 mg/m^2, 1 h infusion		Vz	720 L/m² and 1130 L/m²
C[C@@H](N)C1CCN(S(=O)(=O)c2cccc3cnccc23)CC1			healthy volunteers, fasted, plasma	oral, 150 mg		Vz/F	9120 L
O=C(O)C[C@H](O)C[C@H](O)/C=C/c1c(C2CC2)nc2ccccc2c1-c1ccc(F)cc1			OATP1B1/1B3 humanized mouse, plasma	oral, 5 mg/kg, geometric mean, with: silymarin 500 mg/kg oral		AUC(0-12h)	1.16 µM·h
CC(C)c1nc(N(C)S(C)(=O)=O)nc(-c2ccc(F)cc2)c1/C=C/[C@@H](O)C[C@@H](O)CC(=O)O		refers to: general and administration site disorders	healthy men	oral, dose not given, 8 days, treatment-emergent, crossover trial		subjects with adverse event	9.1%
O=Cc1cc2c(cc1F)C(=O)N(C1CCC(=O)NC1=O)C2 (stereo not shown)			male cynomolgus monkey, plasma	oral, 0.3 mg/kg of parent drug		half-life	1.4 h
CN(CCCN1CCN(C(=O)CN2CCN(CC(=O)[O-])CCN(CC(=O)[O-])CCN(CC(=O)[O-])CC2)CC1)c1ccc2nccc(C(=O)NCC(=O)N3CC(F)(F)C[C@H]3C#N)c2c1.[68Ga+3]			mice, HT-1080.hFAP and HT-1080 wild-type xenografts, heart	iv, 500 pmol, 4 h post injection		uptake	0.1 %IA/g
Cc1cc(C)c(CNC(=O)c2cc(Cl)c3c(c2C)O[C@@](C)([C@H]2CC[C@H](N(C)C)CC2)O3)c(=O)[nH]1			human relapsed/refractory NHL	oral, 200 mg once daily, onset day 1 to 14		disease progression grade ≥3	4.2%

SMILES	tested on	assay	system	conditions	how to read	measurement	value
CCCOc1ccc(-c2ccc(C#N)cc2)cc1			Sprague-Dawley rat, female, fetus	5000 ng/mL in perfusate, 50 (unit not given), high dose, mixture of 21 LCMs		fetal accumulation	15.8 ± 5.7 ng/g
CCCCCCOC(=O)NC(=N)c1ccc(NCc2nc3cc(C(=O)N(CCC(=O)OCC)c4ccccn4)ccc3n2C)cc1			human	oral, 75 mg, compound alone		participants with TEAE dry skin	4.2%
CCN1CCN(Cc2ccc(Nc3ncc(F)c(-c4cc(F)c5nc6n(c5c4)[C@H](C)CCC6)n3)nc2)CC1			human, plasma	200 mg single dose, median		Tmax	5.95 h
Cc1cc(O)c2c(c1)C(=O)c1cc(O)cc(O)c1C2=O	HK-2 co-cultured with HepaRG	MTT		66.67 µM, 48 h	relative to: untreated control	viability	67.1 ± 5.56%
C=CC(=O)Nc1cc(Nc2nccc(-c3cn(C)c4ccccc34)n2)c(OC)cc1N(C)CCN(C)C		storage stability	human plasma	24 h, -80 °C, LLOQ level		recovery	93.6%
CCn1cc(C(=O)N2CCOCC2)c(=O)c2cc(NC3Cc4ccccc4C3)cnc21			human female, fed, plasma	oral, 900 mg twice daily, day 1, tablet, arithmetic mean		AUC(0-12h)	33100 ng·h/mL
CCc1cc(C(=O)NC)c2nccc(N3CCc4c(cc(Cn5ccnc5)cc4-c4cn(C)nc4C(F)(F)F)C3=O)c2c1			Sprague Dawley rats	oral, 100 mg/kg twice daily, 7 days		serum albumin	33.5 ± 1.89 g/L
C=CC(=O)NC1CCN(c2ncc3ncnc(Nc4ccc(Oc5ccc6c(c5)ncn6C)c(C)c4)c3n2)CC1		refers to: general and administration site (SOC)	human male	oral, dose not given, CTCAE on-treatment AEs		adverse events incidence	6%
CCCCc1ccc(-c2ccc(C#N)cc2)cc1			Sprague-Dawley rat, female, fetus	5000 ng/mL in perfusate, 50 (unit not given), high dose, mixture of 21 LCMs		fetal accumulation	1.22 ± 1.02 ng/g
C[C@@H]1CN(CC(=O)N2CC(C)(C)c3nc(CO)c(Cc4ccc(F)cc4)cc32)[C@@H](CN2CCOC[C@H]2C)CN1			cynomolgus monkey, male	oral, 5 mg/kg		half-life	7.9 ± 1.9 h
N#Cc1ccc2c(c1)[C@H]1CCCN(C(=O)c3ccc4[nH]cnc4c3)[C@H]1C2			human, female	240 mg, day 7		DHEA-S level	5 µmol/L
Oc1ccc(/C=C/c2cc(O)cc(O)c2)cc1			rat, azoxymethane-injected, blood	in vivo, 100 mg/kg, at sacrifice		I-BIL level	0.03 mg/dL and 0.04 mg/dL
COc1ccnc(C(=O)NC(CO)C(=O)O)c1O (racemic)		aerobic dark soil incubation	clay loam soil	20 °C, modelling endpoint		DT50	17.4 days
O=C(O)c1cc(O)c2c(c1)C(=O)c1cccc(O)c1C2=O	HK-2 co-cultured with HepaRG	MTT		33.33 µM, 48 h	relative to: untreated control	viability	52.4 ± 3.75%
CCCCCNC(=O)N1CCC(CN(Cc2ccc(Cl)cc2)Cc2ccc([N+](=O)[O-])s2)C1 (stereo not shown)		complete blood count	C57BL/6 mice, blood	100 mg/kg twice daily, 7 days		mean corpuscular volume	41.5 ± 0.4 fL
COc1nnc2ccc(N3CCC(c4ccc(OCCN5CCN(C)C(=O)[C@H]5C)cc4)CC3)nn12			human, plasma	oral, dose not given, single dose, monotherapy, across dose cohorts		terminal half-life	1.8 to 5.4 h
Cn1cncc1-c1c(F)cncc1NC(=O)c1c(N)nn2cc(F)cnc12		population PK model	patients with solid tumours, plasma	oral		Vc/F	30 L
CNC(=O)c1ccc(-c2cnc3ncc(Cc4ccc5ncccc5c4)n3n2)cc1F			human, healthy subjects, plasma	oral, 200 mg single dose, adjusted geometric mean		unbound AUC(0-t)	181 ng·h/mL
CN(C(=O)n1cnc(-c2cccnc2)c1)C1CCCCC1			Wistar rat, cerebellum	oral, 10 mg/kg/day of BIA 10-2474, 4 h, repeated 5 days		concentration	30.1 ± 5.6 ng/g
CC[C@H](C)[C@H](NC(C)=O)C(=O)N[C@H]1CSSC[C@@H](C(=O)N[C@H](C(N)=O)[C@@H](C)O)NC(=O)[C@H](CCCNC(=N)N)NC(=O)[C@H](Cc2c[nH]cn2)NC(=O)[C@](C)(CC)NC(=O)CNC(=O)[C@H](Cc2c[nH]c3ccccc23)NC(=O)[C@H](CC(=O)O)NC(=O)[C@H](CCC(N)=O)NC(=O)[C@H](Cc2c[nH]c3ccccc23)NC(=O)[C@H](C(C)C)NC1=O		isocratic RP-HPLC, C18	32% acetonitrile, phosphate pH 7.4, 1% TFA	25 °C		retention factor	1.208 ± 0.01
Cc1occc(=O)c1[O-].[Cl-].[W+4].c1cc[cH-]c1.c1cc[cH-]c1		cyclic voltammetry			relative to: Ag/AgCl	oxidation potential	569 mV
CC(C)(C(=O)N1CCOc2c(C#N)cncc2C1)C(F)F		refers to: vessel puncture site pain	healthy humans, both sexes	oral, 20 mg single dose		subjects with TEAE	0%
CN1C[C@H](COc2nccc3c(NCc4ccco4)cc(Cl)nc23)OC1=O			rat Crl:CD(SD) male	oral, 300 mg/kg, single dose		adverse necropsy findings	negative
CC1(C)CC[C@]2(NC(=O)C(C)(F)F)CC[C@]3(C)[C@H](C(=O)C=C4[C@@]5(C)C=C(C#N)C(=O)C(C)(C)[C@@H]5CC[C@]43C)[C@@H]2C1			human, plasma	oral, 150 mg, day 23 predose, mean		trough plasma concentration	37.7 ng/mL
O=C(NC[C@H]1CN(c2ccc(N3CCOCC3=O)cc2)C(=O)O1)c1ccc(Cl)s1			FaSSIF	literature solubility over dose		dose-adjusted solubility	0.00099 mL⁻¹
CCOc1c([C@H](C)n2nc(C)c3c(N)ncnc32)cc(Cl)c(F)c1[C@@H]1CNC(=O)C1		refers to: QRS ≤100 ms	previously treated B-cell malignancy	oral, 30 mg once daily, baseline below thresholds		ECG observations	96.8%

A few entries again:
SMILES	tested on	assay	system	conditions	how to read	measurement	value
Cn1cc2cc1C(=O)NC[C@H](N)CC(=O)Nc1cc(n(C)c1)C(=O)Nc1cc(n(C)c1)C(=O)Nc1cc(n(C)c1)C(=O)Nc1cc(n(C)c1)C(=O)NC[C@H](N)CC(=O)Nc1cn(C)c(n1)C(=O)Nc1cn(C)c(n1)C(=O)Nc1cc(n(C)c1)C(=O)N2		dynamic light scattering	0.1% DMSO in PBS	25 °C		critical aggregation concentration	4 µM
CC1(C)CC[C@]2(NC(=O)C(C)(F)F)CC[C@]3(C)[C@H](C(=O)C=C4[C@@]5(C)C=C(C#N)C(=O)C(C)(C)[C@@H]5CC[C@]43C)[C@@H]2C1			human, plasma	oral, 150 mg, day 23 predose, mean		trough plasma concentration	37.7 ng/mL
CCc1cc(C(=O)NC)c2nccc(N3CCc4c(cc(Cn5ccnc5)cc4-c4cn(C)nc4C(F)(F)F)C3=O)c2c1			Sprague Dawley rats	oral, 100 mg/kg twice daily, 7 days		serum albumin	33.5 ± 1.89 g/L
Cc1cc(O)c2c(c1)C(=O)c1cc(O)cc(O)c1C2=O	HK-2 co-cultured with HepaRG	MTT		66.67 µM, 48 h	relative to: untreated control	viability	67.1 ± 5.56%
O=C(N[C@H](Cc1c[nH]c2ccccc12)C(=O)Nc1ccncc1)c1ccc(N2CCN(c3ccc(F)c(F)c3)CC2)cc1F			Swiss Webster mouse, female, brain	oral, 50 mg/kg, 8 h, 20% HPβCD vehicle		concentration	20 nM
N#Cc1ccc2c(c1)[C@H]1CCCN(C(=O)c3ccc4[nH]cnc4c3)[C@H]1C2			human, female	240 mg, day 7		DHEA-S level	5 µmol/L
COc1nnc2ccc(N3CCC(c4ccc(OCCN5CCN(C)C(=O)[C@H]5C)cc4)CC3)nn12			human, plasma	oral, dose not given, single dose, monotherapy, across dose cohorts		terminal half-life	1.8 to 5.4 h
O=Cc1cc2c(cc1F)C(=O)N(C1CCC(=O)NC1=O)C2 (stereo not shown)			male cynomolgus monkey, plasma	oral, 0.3 mg/kg of parent drug		half-life	1.4 h
N[C@@H]1c2ccccc2OC12CCN(c1cnc3c(N4CCCc5ncccc54)n[nH]c3n1)CC2			patients advanced solid tumours, plasma	oral, 150 mg once daily, cycle 1 day 15		effective half-life	105 h
